# Measurements from different studies.
# Compare with care: the assays were run in different laboratories.
SMILES,tested on,system,setting,quantity,value
Cc1ccccc1C(=O)NN=Cc1ccc(O)c(Br)c1,,"normal C3H/HeN mouse, plasma","intravenous, 0.8 mg/kg",AUC(0-t),121 ng·h/mL
C[C@]12N[C@H](Cc3ccccc31)c1ccccc12,Plasmodium falciparum,Dd2,,IC50,10 µM
CC[C@H](C)C(=O)O[C@H]1C[C@H](O)C=C2C=C[C@H](C)[C@H](CC[C@@H](O)C[C@@H](O)CC(=O)O)[C@H]21,,FVB mouse,"oral, dose not given",AUC(0-t),0.0437 µM·h
O=c1c2cc(Cl)c(CO)cc2[nH]c(=S)n1Cc1cncnc1,,mouse,"oral, 3.98 mg/kg",AUC(0-t),147 ng·h/mL
NC(=O)c1cccc(-c2cc(OC(=O)NC3CCCCC3)ccc2O)c1,,"mouse, plasma","oral, 10 mg/kg, 0 to 24 h",AUC(0-t),258 ng·h/mL
CN[C@H]1CC[C@@H](c2ccc(Cl)c(Cl)c2)c2ccccc21,,"CD-1 mouse, male, plasma","intraperitoneal, 10 mg/kg",AUC(0-t),685 ng·h/mL
Nc1ccc2cc3ccc(N)cc3nc2c1,,"male CD-1 mouse, plasma","intravenous, 15 mg/kg",AUC(0-t),730 ng·h/mL
COc1cc2c(cc1OC)CN(CCc1ccc(NC(=O)c3cccc4c(=O)c5cccc(OC)c5[nH]c34)cc1)CC2,,"CD-1 mouse, male, plasma","intraperitoneal, 30 mg/kg",AUC(0-t),13400 ng·h/mL
CC(COc1ccccc1)N(CCCl)Cc1ccccc1 (centres unmarked),Plasmodium falciparum,GB4,,IC50,1.58 µM
Cc1[nH]c(C)c(S(=O)(=O)Nc2ccc(S(F)(F)(F)(F)F)cc2)c1C(=O)N1CCC(F)(F)C1,,"mouse, brain","intraperitoneal, 40 mg/kg",AUC(0-t),24300 ng·h/g
COc1cccc2c1CCCC2CCCN1CCN(C2CCCCC2)CC1 (centres unmarked),,"CD-1 mouse, male, plasma","intraperitoneal, 0.3 mg/kg",AUC(0-t),4.48 ng·h/mL

# For quick reference, copied from above:
SMILES,tested on,system,setting,quantity,value
C[C@]12N[C@H](Cc3ccccc31)c1ccccc12,Plasmodium falciparum,Dd2,,IC50,10 µM
